# Published values gathered from unrelated publications.
# Numbered parts are unrelated; each lists some results of a single study. Substitutions count along the parent as printed.
# Sequence of UniProt Q9NRM7 (whole entry, looked up): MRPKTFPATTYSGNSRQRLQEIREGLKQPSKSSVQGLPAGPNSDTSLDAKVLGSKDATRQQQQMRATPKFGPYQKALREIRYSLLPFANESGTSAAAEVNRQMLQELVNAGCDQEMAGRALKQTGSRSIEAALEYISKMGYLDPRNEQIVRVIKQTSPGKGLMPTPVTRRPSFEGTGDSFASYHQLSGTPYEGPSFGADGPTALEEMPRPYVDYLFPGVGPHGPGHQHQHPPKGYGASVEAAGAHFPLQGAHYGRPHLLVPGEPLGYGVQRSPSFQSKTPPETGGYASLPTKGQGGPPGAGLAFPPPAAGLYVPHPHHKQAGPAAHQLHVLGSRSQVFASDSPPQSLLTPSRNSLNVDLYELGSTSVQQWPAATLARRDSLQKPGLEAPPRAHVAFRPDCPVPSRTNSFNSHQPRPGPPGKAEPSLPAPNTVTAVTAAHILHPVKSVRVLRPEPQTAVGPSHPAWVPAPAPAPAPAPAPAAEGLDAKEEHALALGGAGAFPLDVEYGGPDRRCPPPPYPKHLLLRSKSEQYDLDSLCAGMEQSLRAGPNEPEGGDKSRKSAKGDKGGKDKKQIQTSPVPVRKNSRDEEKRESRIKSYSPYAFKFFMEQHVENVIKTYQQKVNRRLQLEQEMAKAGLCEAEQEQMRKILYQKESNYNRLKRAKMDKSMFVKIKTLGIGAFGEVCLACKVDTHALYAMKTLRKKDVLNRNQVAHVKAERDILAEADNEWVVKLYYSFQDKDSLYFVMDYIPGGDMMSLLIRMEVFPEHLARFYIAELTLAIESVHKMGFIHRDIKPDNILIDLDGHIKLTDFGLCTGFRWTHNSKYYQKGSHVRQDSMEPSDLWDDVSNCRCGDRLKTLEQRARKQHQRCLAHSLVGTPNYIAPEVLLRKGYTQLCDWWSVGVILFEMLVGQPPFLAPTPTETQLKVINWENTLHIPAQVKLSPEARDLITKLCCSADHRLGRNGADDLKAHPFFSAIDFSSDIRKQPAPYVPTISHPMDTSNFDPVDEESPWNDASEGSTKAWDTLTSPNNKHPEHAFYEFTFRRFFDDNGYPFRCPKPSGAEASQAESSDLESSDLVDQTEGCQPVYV
# Sequence of UniProt O14578 (whole entry, looked up): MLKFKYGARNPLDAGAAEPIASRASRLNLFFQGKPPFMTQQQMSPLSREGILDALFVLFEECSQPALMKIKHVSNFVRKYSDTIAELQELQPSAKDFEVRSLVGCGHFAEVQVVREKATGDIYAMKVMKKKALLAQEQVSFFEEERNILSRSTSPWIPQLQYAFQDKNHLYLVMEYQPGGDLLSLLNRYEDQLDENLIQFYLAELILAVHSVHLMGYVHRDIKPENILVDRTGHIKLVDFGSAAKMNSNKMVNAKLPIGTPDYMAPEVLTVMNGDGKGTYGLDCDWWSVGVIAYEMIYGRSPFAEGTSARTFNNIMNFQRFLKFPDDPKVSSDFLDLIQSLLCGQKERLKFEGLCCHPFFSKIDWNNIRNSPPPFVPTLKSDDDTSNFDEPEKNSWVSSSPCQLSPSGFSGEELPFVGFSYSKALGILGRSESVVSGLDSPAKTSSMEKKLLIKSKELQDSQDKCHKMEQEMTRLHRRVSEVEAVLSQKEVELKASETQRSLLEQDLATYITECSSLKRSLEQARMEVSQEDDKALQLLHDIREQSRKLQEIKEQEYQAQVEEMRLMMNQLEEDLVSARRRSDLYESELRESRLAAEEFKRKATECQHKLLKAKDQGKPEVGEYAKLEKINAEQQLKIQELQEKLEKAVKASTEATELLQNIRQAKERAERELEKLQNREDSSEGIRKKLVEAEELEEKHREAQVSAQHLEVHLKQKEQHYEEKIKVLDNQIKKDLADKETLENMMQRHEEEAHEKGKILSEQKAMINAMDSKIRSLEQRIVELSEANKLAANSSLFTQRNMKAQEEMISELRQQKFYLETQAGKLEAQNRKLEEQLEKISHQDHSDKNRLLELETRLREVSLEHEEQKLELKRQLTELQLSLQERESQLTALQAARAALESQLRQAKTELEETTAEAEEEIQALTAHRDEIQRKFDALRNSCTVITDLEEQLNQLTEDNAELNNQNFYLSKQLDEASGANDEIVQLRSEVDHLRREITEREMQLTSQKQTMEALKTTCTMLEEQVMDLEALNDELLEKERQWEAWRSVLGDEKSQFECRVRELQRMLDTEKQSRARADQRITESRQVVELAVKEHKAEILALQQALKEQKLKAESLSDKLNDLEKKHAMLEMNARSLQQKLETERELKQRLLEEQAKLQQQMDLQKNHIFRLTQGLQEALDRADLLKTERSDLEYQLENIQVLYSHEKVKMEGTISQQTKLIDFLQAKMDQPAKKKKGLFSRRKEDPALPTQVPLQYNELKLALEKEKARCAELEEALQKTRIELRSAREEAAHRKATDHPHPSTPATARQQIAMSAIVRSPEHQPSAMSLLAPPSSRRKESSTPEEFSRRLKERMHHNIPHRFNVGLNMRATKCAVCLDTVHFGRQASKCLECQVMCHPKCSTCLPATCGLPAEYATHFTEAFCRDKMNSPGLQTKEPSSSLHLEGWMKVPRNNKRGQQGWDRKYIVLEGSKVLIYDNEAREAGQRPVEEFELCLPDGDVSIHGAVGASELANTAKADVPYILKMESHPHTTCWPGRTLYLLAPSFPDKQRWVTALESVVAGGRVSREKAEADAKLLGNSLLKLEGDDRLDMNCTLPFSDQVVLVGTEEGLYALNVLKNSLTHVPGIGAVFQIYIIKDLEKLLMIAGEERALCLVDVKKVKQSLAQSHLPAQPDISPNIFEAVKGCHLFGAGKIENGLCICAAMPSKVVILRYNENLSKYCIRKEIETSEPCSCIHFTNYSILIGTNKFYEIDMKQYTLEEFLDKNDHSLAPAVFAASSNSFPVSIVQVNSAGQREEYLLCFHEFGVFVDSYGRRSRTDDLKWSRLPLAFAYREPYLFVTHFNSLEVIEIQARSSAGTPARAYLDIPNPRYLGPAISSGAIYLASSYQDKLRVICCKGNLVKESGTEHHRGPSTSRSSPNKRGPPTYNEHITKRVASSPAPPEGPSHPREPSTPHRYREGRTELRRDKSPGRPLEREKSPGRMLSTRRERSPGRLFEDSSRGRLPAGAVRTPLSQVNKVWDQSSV

# Set 1 — target: OGT, full length, His-tagged (human); method: phage display, sequencing; sample: in vitro; concentration: 1 µg OGT; reference: input library; reading: higher = stronger binding; parent: peptide; VAYPNSYMPKYQIST
# Setting: single substitutions, 15-mer displayed peptide, unchanged parent 6.14
Change,fold enrichment
I13F,0.725 fold
V1Y,6.49 fold
A2I,5.7 fold
S14Y,10.9 fold
S6M,9.83 fold
M8I,1.99 fold
S14L,10.2 fold
Y3F,6.72 fold

# Set 2 — read-out: enzyme activity; mode: inhibitor; concentration: 0.5 µM; reference: control
# Target: Serine/threonine-protein kinase MRCK alpha (CDC42BPA, Homo sapiens, UniProt Q5VT25)
# Sequence of UniProt Q5VT25 (whole entry, looked up): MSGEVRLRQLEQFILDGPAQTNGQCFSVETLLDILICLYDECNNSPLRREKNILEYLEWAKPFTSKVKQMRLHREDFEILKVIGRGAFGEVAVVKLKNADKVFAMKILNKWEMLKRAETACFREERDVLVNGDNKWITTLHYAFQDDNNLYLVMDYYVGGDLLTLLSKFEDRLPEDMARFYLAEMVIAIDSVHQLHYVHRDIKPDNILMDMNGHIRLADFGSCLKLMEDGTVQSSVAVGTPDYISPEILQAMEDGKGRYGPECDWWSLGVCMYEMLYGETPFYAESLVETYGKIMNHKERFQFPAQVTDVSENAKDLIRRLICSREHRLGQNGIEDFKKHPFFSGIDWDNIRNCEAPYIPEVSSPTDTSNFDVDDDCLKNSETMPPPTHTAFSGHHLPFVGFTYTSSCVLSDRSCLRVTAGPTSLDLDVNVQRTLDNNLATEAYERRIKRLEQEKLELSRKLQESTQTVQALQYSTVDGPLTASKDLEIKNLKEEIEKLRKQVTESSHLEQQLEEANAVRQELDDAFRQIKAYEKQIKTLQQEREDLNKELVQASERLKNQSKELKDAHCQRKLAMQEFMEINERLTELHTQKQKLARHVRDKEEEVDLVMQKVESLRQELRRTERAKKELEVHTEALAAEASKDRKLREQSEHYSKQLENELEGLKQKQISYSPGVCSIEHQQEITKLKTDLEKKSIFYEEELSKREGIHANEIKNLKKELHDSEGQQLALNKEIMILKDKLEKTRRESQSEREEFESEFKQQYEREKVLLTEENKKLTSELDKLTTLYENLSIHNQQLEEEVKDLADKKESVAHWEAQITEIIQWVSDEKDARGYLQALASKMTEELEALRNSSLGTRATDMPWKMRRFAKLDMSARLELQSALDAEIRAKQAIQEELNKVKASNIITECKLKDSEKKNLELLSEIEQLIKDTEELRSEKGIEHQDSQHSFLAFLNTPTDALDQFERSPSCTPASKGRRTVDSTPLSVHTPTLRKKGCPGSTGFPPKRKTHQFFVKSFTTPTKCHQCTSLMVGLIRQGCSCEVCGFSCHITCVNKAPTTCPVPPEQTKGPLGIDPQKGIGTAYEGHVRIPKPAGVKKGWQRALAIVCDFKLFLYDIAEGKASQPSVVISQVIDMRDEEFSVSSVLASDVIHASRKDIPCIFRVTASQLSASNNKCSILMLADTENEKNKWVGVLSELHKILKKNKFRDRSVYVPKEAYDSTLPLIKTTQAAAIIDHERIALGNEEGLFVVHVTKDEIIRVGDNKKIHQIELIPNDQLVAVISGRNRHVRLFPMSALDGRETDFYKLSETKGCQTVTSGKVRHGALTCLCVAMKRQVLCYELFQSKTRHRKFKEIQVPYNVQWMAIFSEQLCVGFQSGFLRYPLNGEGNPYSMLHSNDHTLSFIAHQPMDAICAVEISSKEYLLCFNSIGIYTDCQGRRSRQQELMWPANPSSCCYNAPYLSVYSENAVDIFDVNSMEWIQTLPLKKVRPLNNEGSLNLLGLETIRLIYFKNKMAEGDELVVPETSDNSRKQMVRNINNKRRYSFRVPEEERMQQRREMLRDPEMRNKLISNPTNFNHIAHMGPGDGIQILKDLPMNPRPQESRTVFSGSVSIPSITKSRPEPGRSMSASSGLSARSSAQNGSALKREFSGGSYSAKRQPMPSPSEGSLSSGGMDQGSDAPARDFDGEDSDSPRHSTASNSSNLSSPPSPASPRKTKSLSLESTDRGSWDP
SMILES,remaining activity [%]
OCC(O)CCON=C1C(c2c(O)[nH]c3ccccc23)=Nc2ccccc21 (stereo not shown),88.6
N#CC(C#N)=C(N)/C(C#N)=C/c1ccc(O)cc1,96.2
COc1ccc(OC)c2c(=S)c3ccccc3[nH]c12,82.7
COc1cc2nccc(Oc3ccc(NC(=S)NC(=O)c4ccccc4C)cc3)c2cc1OC,93.9
COc1cc2ncnc(Nc3ccc(F)c(Cl)c3)c2cc1OCCCN1CCOCC1,87.8
Oc1ccc(-c2nc(-c3ccncc3)c(-c3ccc(F)cc3)[nH]2)cc1,94
Nc1[nH]nc2nc3ccccc3nc12,95.4
COc1cc2ncnc(Nc3ccc(Oc4ccccc4)cc3)c2cc1OC,95.4
CN(C)c1ccc(C=C2C(=O)Nc3ccccc32)cc1,101
CO[C@H]1C[C@@H]2CC[C@@H](C)[C@@](O)(O2)C(=O)C(=O)N2CCCC[C@H]2C(=O)O[C@H]([C@H](C)C[C@@H]2CC[C@@H](O)[C@H](OC)C2)CC(=O)[C@H](C)/C=C(\C)[C@@H](O)[C@@H](OC)C(=O)[C@H](C)C[C@H](C)/C=C/C=C/C=C/1C,95.6

# Set 3 — method: protein-binding microarray; form: double-stranded DNA, one strand shown; sample: in vitro; concentration: 2540 nM top; setting: 60-bp whole probe; added: salmon DNA 0.4 mg/ml; reference: random background probes; reading: higher = stronger binding; all sequences stand within: GCCTAGCAC … GTCTTGATTCGCTTGACGCTGCTG
# Target: Interferon regulatory factor 3, full length, phosphomimetic (IRF3, Homo sapiens, UniProt Q14653, residues 1-427, S386D/S396D/S398D/S402D/T404D/S405D)
# Target sequence (chain): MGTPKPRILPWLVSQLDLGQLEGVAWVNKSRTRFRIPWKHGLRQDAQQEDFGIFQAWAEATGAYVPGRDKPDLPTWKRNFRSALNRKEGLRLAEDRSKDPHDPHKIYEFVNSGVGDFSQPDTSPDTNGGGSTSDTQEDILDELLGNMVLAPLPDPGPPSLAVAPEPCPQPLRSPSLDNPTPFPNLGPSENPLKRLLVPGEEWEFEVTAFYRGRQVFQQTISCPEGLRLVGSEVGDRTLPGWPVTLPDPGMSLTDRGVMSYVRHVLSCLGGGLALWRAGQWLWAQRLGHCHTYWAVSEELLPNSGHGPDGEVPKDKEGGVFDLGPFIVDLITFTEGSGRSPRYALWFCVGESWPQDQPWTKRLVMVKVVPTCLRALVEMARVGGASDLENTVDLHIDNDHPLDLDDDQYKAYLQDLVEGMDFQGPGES
Oligonucleotide,fitted relative affinity [z-score]
CCCCCAATCTCTCTTCACATGTGCTAG,0.848
TTAGGTCTTCTTTTCCTTTAGTGCTAG,1.73
TTTTTTTTTACTTCGGGTGAGTGCTAG,1.71
TCCATTTTTACCCTCCTTACGTGCTAG,2.06
TTAGGACTGCTTTTCCGTTAGTGCTAG,0.0185
TTAGGACTTGGGTTTCGGTTAGTGCTA,2.57
CTCTTTGTTTCACTTCCTGGTGTGCTA,4.23
TTAGGTCTCGGACTAGGTTAGTGCTAG,0.0123

# Set 4 — read-out: cell-free assay; method: competition with immobilised ligand; concentration: 1 µM
# Compound: Cc1noc([C@H]2C[C@@H](c3ccc(C(F)(F)F)cc3)CN(C(=O)N3CCS(=O)(=O)C3)C2)n1
target,remaining binding
"FGFR4 (Homo sapiens, UniProt P22455)",100%
"LATS2 (Homo sapiens, UniProt Q9NRM7)",100%
"CAMK1G (Homo sapiens, UniProt Q96NX5)",100%
"MARK1 (Homo sapiens, UniProt Q9P0L2)",91%
"CIT (Homo sapiens, UniProt O14578)",98%

# For quick reference, copied from above (set 4):
target,remaining binding
"FGFR4 (Homo sapiens, UniProt P22455)",100%
"MARK1 (Homo sapiens, UniProt Q9P0L2)",91%
"CAMK1G (Homo sapiens, UniProt Q96NX5)",100%
"LATS2 (Homo sapiens, UniProt Q9NRM7)",100%
"CIT (Homo sapiens, UniProt O14578)",98%
